Published values pooled from the literature.
Lines come from different studies, so protocols differ. ± gives the spread as reported.

O=C1CCc2ccc(OCCCCN3CCN(c4cccc(Cl)c4Cl)CC3)cc2N1
adverse event incidence (refers to: Hypertension; patients, CYP2D6 normal metabolizers; dose not given, long-acting oral or depot): 0.9%

CC1(C)CC[C@]2(C(=O)O)CC[C@]3(C)C(=CC[C@@H]4[C@@]5(C)C[C@@H](O)[C@H](OC(=O)/C=C/c6ccc(O)cc6)C(C)(C)[C@@H]5CC[C@]43C)[C@@H]2C1 (relative stereo)
MRT(0-inf) (C57BL/6 mice, brain; intraperitoneal, 85 µmol/kg single dose): 3.59 h

CCN1/C(=C/C(C)=O)Sc2ccc(F)cc21
diastolic blood pressure (cynomolgus monkey; oral, 10 mg/kg, 4 h post-dose): 81 ± 5 mmHg

CNCCOC12CC3(C)CC(C)(CC(Cn4ncc(-c5ccc(N6CCc7cccc(C(=O)Nc8nc9ccccc9s8)c7C6)nc5C(=O)O)c4C)(C3)C1)C2
dP/dt at 50 change (beagle dog, male, anaesthetised; intravenous bolus, 0.03 mg/kg, 60 min; baseline: baseline): 0%

CN1CCN(C(=O)c2ccc(C3CCCCC3)cc2)CC1=O
hepatic clearance (liver microsome stability; rat liver microsomes; 1 µM): 45 mL/min/kg

COc1cc2nccc(Oc3ccc(NC(=O)c4cc5c(n(-c6ccccc6)c4=O)CCCC5=O)nc3)c2cc1OC
patients, with TEAEs, drug-related grade ≥3 (human, relapsed/refractory AML; oral, 3 mg once daily, CTCAE grading): 10%

C[C@@H](Nc1cc(F)cc(F)c1)c1cc(C(=O)N(C)C)cc2c(=O)cc(N3CCOCC3)oc12
dose interruption due to AE (advanced solid tumour patients; oral, 30 mg twice daily, continuous monotherapy): 50%

C[C@]12CC[C@@H]3c4ccc(O)cc4CC[C@H]3[C@@H]1CCC2=O
dose fraction in milk fat (whole cow milk; 20 nM nominal): 74.4%

CNCc1ccc(-c2cc(-c3nc(-c4ccc(S(=O)(=O)C(C)C)cc4)cnc3N)on2)cc1
spleen weight relative to body weight (female BALB/c mice; single dose, dose not given, 48 h, with: total body irradiation 6 Gy): 0.202%

CN(Cc1cccnc1)C(=O)c1ccc([C@H]2[C@@H](F)[C@@H](F)C[C@@H](F)[C@H]2F)cc1
hepatic clearance (liver microsome stability; rat liver microsomes; 1 µM): 40 mL/min/kg

Cc1cn(C(=O)c2c(-c3c(Cl)cc(Cl)cc3Cl)noc2C(C)(C)F)c2cccc(/C=C/C(=O)O)c12
AUC(0-8h) (human patients; 250 mg bid, cycle 8 day 1): 159 µg·h/mL

CNC(=O)c1ccc(-c2cnc3ncc(Cc4ccc5ncccc5c4)n3n2)cc1F
Teratogenicity patients (Japanese patients; oral, 400 mg twice daily, any grade): 0%

COc1ccnc(C(=O)N[C@H]2COC(=O)[C@H](Cc3ccccc3)[C@@H](O)[C@H](C)OC2=O)c1O
KFoc (soil adsorption; soil; pH 6.9, organic carbon 0.8 %): 2870 mL/g

COc1ccc2c(c1)CN(C(=O)CCN1CCC(Cc3ccccc3)CC1)CC[S@@+]2[O-]
diastolic blood pressure (telemetry; conscious dog; intravenous, 2 mg/kg, 24 h): 80 ± 11 mmHg

N#Cc1ccc2c(c1)[C@H]1CCCN(C(=O)c3ccc4[nH]cnc4c3)[C@H]1C2
maximum ACTH level (human; 80 mg, end of trial): 12.9 pmol/L

CN1C(=O)[C@@H](NC(=O)c2nnc(Cc3ccccc3)[nH]2)COc2cccnc21
Tmax (human, plasma; oral, 200 mg once daily, day 1, median): 3 h

CSCC[C@H](NC(=O)[C@H](CCCCN)NC(=O)[C@H](CCCNC(=N)N)NC(=O)[C@H](CO)NC(=O)[C@H](Cc1c[nH]c2ccccc12)NC(=O)[C@H](CCCNC(=N)N)NC(=O)[C@@H](CC(C)C)NC(=O)[C@@H](N)CCSC)C(=O)N1CCC[C@H]1C(=O)N[C@@H](CS)C(=O)N[C@H](C(=O)N[C@@H](CO)C(N)=O)C(C)C
remaining activity (12G5 competition, SUP-T1 cells; human plasma; 20 µM, 2 h, 37 °C): 92 ± 21%

CNCc1ccc(-c2[nH]c3cc(F)cc4c3c2CCNC4=O)cc1
dysgeusia incidence (human patients; oral, 480 mg twice daily, all grades): 11.1%

C[C@@H](N)C1CCN(S(=O)(=O)c2cccc3cnccc23)CC1
TEAE incidence (healthy volunteers; 150 mg, fed): 40%

CCCCC[C@H](O)CC[C@@H]1[C@H]2Cc3cccc(OCC(=O)O)c3C[C@H]2C[C@H]1O
half-life (LC-MS/MS; Japanese IPAH/HPAH patients, plasma; inhaled, 54 µg, geometric mean): 42 min

CC(C(=O)NCC(=O)NCC(CNC(=O)CNC(=O)C(C)N1CCN(CC(=O)[O-])CCN(CC(=O)[O-])CCN(CC(=O)[O-])CC1)(CNC(=O)CNC(=O)C(C)N1CCN(CC(=O)[O-])CCN(CC(=O)[O-])CCN(CC(=O)[O-])CC1)CNC(=O)CNC(=O)C(C)N1CCN(CC(=O)[O-])CCN(CC(=O)[O-])CCN(CC(=O)[O-])CC1)N1CCN(CC(=O)[O-])CCN(CC(=O)[O-])CCN(CC(=O)[O-])CC1.[Gd+3].[Gd+3].[Gd+3].[Gd+3] (stereo not shown)
Gd concentration (ICP-MS; rat, femur epiphysis; intravenous, 0.6 mmol Gd/kg, 1 week): 1.2 nmol/g

CCc1cc(C(=O)NC)c2nccc(N3CCc4c(cc(Cn5ccnc5)cc4-c4cn(C)nc4C(F)(F)F)C3=O)c2c1
blood Eos change (Sprague Dawley rats; oral, 100 mg/kg twice daily, 7 days; baseline: vehicle): -76.5%

Cc1cc(Nc2ccc(S(F)(F)(F)(F)F)cc2)n2nc(C(C)(F)F)nc2n1
AUC(0-168 h) (LC-MS/MS; human vivax malaria patients, plasma; oral, 400 mg, mean): 657 µg·h/mL

C=CC(=O)Nc1cc(Nc2nccc(-c3cn(C)c4ccccc34)n2)c(OC)cc1N(C)CCN(C)C
recovery (human plasma; 72 h, storage stability, medium QC sample): 50.2%

Cc1ccc(CNC(=O)c2cc(/C=C/C(=O)O)cc(-c3ccc4ncnn4c3)c2)cc1
metabolic stability (mouse, liver microsomes; 1 µg/mL, 60 min, 0.5 mg/mL protein, with: NADPH): stable

CC(C)(C)NC(=O)C1CCN(Cc2cccc(/N=N/c3ccccc3)c2)CC1
absorption maximum, cis isomer (DMSO; 25 µM, 25 °C): 436 nm

COc1ccnc(C(=O)O)c1O
KFoc (soil adsorption; clay soil; pH 7.6, organic carbon 1.7 %): 5520 mL/g

NC(=O)N1c2ccccc2C=Cc2ccccc21
adverse events incidence (refers to: neck pain; human male; oral, dose not given, CTCAE on-treatment AEs): 0%

Cc1ccc([C@@H]2O[C@H](CO)[C@@H](O)[C@H](O)[C@H]2O)cc1Cc1ccc(-c2ccc(F)cc2)s1
urinary calcium excretion change (Japanese type 2 diabetes patients; 25 mg, day 6, 24 h urine collection; baseline: baseline): -38.4 mg

CN(C(=O)n1cnc(-c2cccnc2)c1)C1CCCCC1
concentration (Wistar rat, hippocampus; oral, 10 mg/kg/day of BIA 10-2474, 72 h, repeated 5 days): 9.7 ± 0.2 ng/g

CC(C)(C(=O)N1CCOc2c(C#N)cncc2C1)C(F)F
subjects with TEAE (refers to: general and administration site conditions; healthy humans, both sexes; oral, 30 mg single dose): 16.7%

O=C(COc1ccc(Cl)cc1)NC12CC(c3nnc([C@H]4C[C@@H](OC(F)(F)F)C4)o3)(C1)C2
adverse event incidence (refers to: Hypogeusia; human; 28 (unit not given)): 10.5%

CC(C)Cn1cnc2c(N)nc3ccccc3c21
remaining compound (C57BL/6J mice, female, beta-naphthoflavone-treated, liver microsomes; 1 µM, 30 min): 5%

NC(=O)CCNC(=O)c1ccc(C2CCCCC2)cc1
hepatic clearance (hepatocyte stability; cryopreserved human hepatocytes; 1 µM): 16 mL/min/kg

O=C(O)CCC(=O)O.[2H]C([2H])([2H])Oc1cc(C)c2[nH]ccc2c1CN1CC[C@@H](C2CC2)C[C@H]1c1ccc(C(=O)O)cc1
TEAE hyponatremia (healthy Chinese subjects; 400 mg, single ascending dose): 0%

O=C(Cn1ccnc1)Nc1ccc([C@H]2[C@@H](F)[C@@H](F)C[C@@H](F)[C@H]2F)cc1
hepatic clearance (cryopreserved mouse hepatocytes; 1 µM): 21 mL/min/kg

C[C@H]1CN(C(=O)CC#N)[C@]12CCN(c1ncnc3[nH]ccc13)C2
subjects with Paraesthesia (healthy human; oral, 3 mg single): 0%

O=C(c1ccc(C2CCCCC2)cc1)N1CC(O)C1
hepatic clearance (hepatocyte stability; cryopreserved mouse hepatocytes; 1 µM): 79 mL/min/kg

CCCOc1ccc(NC(=O)CN2CCN(C)CC2)cc1-c1nc(CC)c(CC)c(=O)[nH]1
maximal decrease in systolic BP (healthy Chinese men; 10 mg, supine or semi-supine, with: placebo; baseline: baseline): -9 ± 6.56 mmHg

NC1(C(=O)N[C@@H](CCO)c2ccc(Cl)cc2)CCN(c2nc[nH]c3nccc2-3)CC1
incidence of Dyspepsia (metastatic CRPC patients; 480 mg b.i.d., any grade, treatment-related, with: enzalutamide 160 mg daily): 0%

O=C(NCC1CCOCC1)c1ccc([C@H]2[C@@H](F)[C@@H](F)C[C@@H](F)[C@H]2F)cc1
hepatic clearance (liver microsome stability; rat liver microsomes; 1 µM): 13 mL/min/kg

CNC(=O)c1cc(Oc2ccc(NC(=O)Nc3cc(C(C)(C)C)nn3-c3ccc4ncccc4c3)c(F)c2)ccn1
patients with adverse events (refers to: any AESI, worst grade ≥2; human patients; oral, dose not given, medium AUC(0-4 h) subgroup, cycles 1-2): 14%

CC1(C)C(/C=C/C=C/C=C/C=C2\N(CCCCS(=O)(=O)O)c3ccc4ccccc4c3C2(C)C)=[N+](CCCCS(=O)(=O)[O-])c2ccc3ccccc3c21
excitation maximum (toluene; 20 °C): 795 nm

O=C(O)CCCOc1ccc([18F])cc1-c1cc(-c2ccccc2C(F)(F)F)n(-c2ccccc2)n1
blood radioactivity (18F biodistribution; male ddY mouse, whole blood; intravenous, 2.1 MBq, 60 min): 0.11 ± 0.03 SUV

C=CC(=O)NC1CCN(c2ncc3ncnc(Nc4ccc(Oc5ccc6c(c5)ncn6C)c(C)c4)c3n2)CC1
AUC(0-tz) (human, male, plasma; oral, 240 mg single dose, fed, geometric mean): 59.5 µM·h

O=C(NCCc1cccnc1)c1ccc(C2CCCCC2)cc1
hepatic clearance (liver microsome stability; dog liver microsomes; 1 µM): 29 mL/min/kg

Cc1nc2ccc(F)cc2n1-c1nc(N)c(F)c(Nc2ccc(C(F)(F)F)cc2)n1
dose-normalized AUC(0-inf) (human patients, plasma; oral, 300 mg twice weekly, cycles 1 and 2 pooled): 60.1 ng·h/mL/mg

Cc1ccc(Sc2ccccc2N2CCNCC2)c(C)c1
participants with TEAE (refers to: Headache; healthy adult men; oral, 5 mg daily, 12 days): 0%

CC(C)c1c(C(=O)Nc2ccccc2)c(-c2ccccc2)c(-c2ccc(F)cc2)n1CC[C@@H](O)C[C@@H](O)CC(=O)O
share of subjects with adverse events (healthy human subjects; oral, dose not given, treatment-emergent adverse events): 8.3%

O=C(Nc1nc2cccc(-c3ccc(CN4CCS(=O)(=O)CC4)cc3)n2n1)C1CC1
treatment-emergent adverse events (refers to: hypercholesterolaemia; human rheumatoid arthritis patients; oral, 75 mg once daily, 4 weeks, regardless of relatedness): 4.5%

Cc1ccc(CCC(=O)Nc2nnc(S(N)(=O)=O)s2)cc1
unbound plasma concentration (BALB/c mouse, male, plasma; oral, 20 mg/kg, 0.167 h): 5.91 ng/mL

C[C@@H](c1ncncc1F)[C@](O)(Cn1cncn1)c1ccc(F)cc1F
drug-related TEAE incidence (refers to: Photopsia; human; oral, 200 mg): 0%

CCOc1c([C@H](C)n2nc(C)c3c(N)ncnc32)cc(Cl)c(F)c1[C@@H]1CNC(=O)C1
observations QTcF >450 ≤480 ms (ECG; previously treated B-cell malignancy patients; oral, 45 mg once daily, baseline QTcF ≤450 ms): 0%

O=C(Cc1ccc2ccccc2c1)Nc1cc(C2CCC2)[nH]n1
hepatic intrinsic clearance (mouse liver S9): 120 ± 4.8 mL/min/kg

CC(C)(c1ccc(O)cc1)c1ccc(O)cc1
dose fraction in skim milk (whole cow milk; 200 nM nominal): 56.8%

O=C(NCc1cc[nH]n1)c1ccc([C@H]2[C@@H](F)[C@@H](F)C[C@@H](F)[C@H]2F)cc1
hepatic clearance (liver microsome stability; rat liver microsomes; 1 µM): 14 mL/min/kg

Cl.[2H]C([2H])([2H])CC(=O)c1cnc(NC(=O)C2CC2)cc1Nc1cccc(-c2ncn(C([2H])([2H])[2H])n2)c1OC
CL/F (geometric mean; human; 10 mg once daily, day 1, fasted, liquid, multiple dose): 12.7 L/h

Cn1cc(Nc2nccc(-c3ccc4c(c3)CN(C3COC3)CC[C@H]4NC(=O)c3cn(C(C)(C)C)nn3)n2)cn1
CD3+ T cell count change (human, whole blood; 50 mg twice daily, day 7; baseline: pre-dose baseline): 15.4%

Some of these lines once more:
N#Cc1ccc2c(c1)[C@H]1CCCN(C(=O)c3ccc4[nH]cnc4c3)[C@H]1C2
maximum ACTH level (human; 80 mg, end of trial): 12.9 pmol/L

O=C(O)CCC(=O)O.[2H]C([2H])([2H])Oc1cc(C)c2[nH]ccc2c1CN1CC[C@@H](C2CC2)C[C@H]1c1ccc(C(=O)O)cc1
TEAE hyponatremia (healthy Chinese subjects; 400 mg, single ascending dose): 0%

CCCOc1ccc(NC(=O)CN2CCN(C)CC2)cc1-c1nc(CC)c(CC)c(=O)[nH]1
maximal decrease in systolic BP (healthy Chinese men; 10 mg, supine or semi-supine, with: placebo; baseline: baseline): -9 ± 6.56 mmHg

CC1(C)CC[C@]2(C(=O)O)CC[C@]3(C)C(=CC[C@@H]4[C@@]5(C)C[C@@H](O)[C@H](OC(=O)/C=C/c6ccc(O)cc6)C(C)(C)[C@@H]5CC[C@]43C)[C@@H]2C1 (relative stereo)
MRT(0-inf) (C57BL/6 mice, brain; intraperitoneal, 85 µmol/kg single dose): 3.59 h

NC(=O)CCNC(=O)c1ccc(C2CCCCC2)cc1
hepatic clearance (hepatocyte stability; cryopreserved human hepatocytes; 1 µM): 16 mL/min/kg

COc1cc2nccc(Oc3ccc(NC(=O)c4cc5c(n(-c6ccccc6)c4=O)CCCC5=O)nc3)c2cc1OC
patients, with TEAEs, drug-related grade ≥3 (human, relapsed/refractory AML; oral, 3 mg once daily, CTCAE grading): 10%

CC(C(=O)NCC(=O)NCC(CNC(=O)CNC(=O)C(C)N1CCN(CC(=O)[O-])CCN(CC(=O)[O-])CCN(CC(=O)[O-])CC1)(CNC(=O)CNC(=O)C(C)N1CCN(CC(=O)[O-])CCN(CC(=O)[O-])CCN(CC(=O)[O-])CC1)CNC(=O)CNC(=O)C(C)N1CCN(CC(=O)[O-])CCN(CC(=O)[O-])CCN(CC(=O)[O-])CC1)N1CCN(CC(=O)[O-])CCN(CC(=O)[O-])CCN(CC(=O)[O-])CC1.[Gd+3].[Gd+3].[Gd+3].[Gd+3] (stereo not shown)
Gd concentration (ICP-MS; rat, femur epiphysis; intravenous, 0.6 mmol Gd/kg, 1 week): 1.2 nmol/g

O=C(NCCc1cccnc1)c1ccc(C2CCCCC2)cc1
hepatic clearance (liver microsome stability; dog liver microsomes; 1 µM): 29 mL/min/kg
